Measurements of several laboratories.
A part holds a random share of what one study measured.

Set 1
Target: Histone acetyltransferase KAT6A, winged helix 2, GST fusion (KAT6A, Homo sapiens, UniProt Q92794, residues 85-181)
Method: protein binding microarray
Form: double-stranded DNA, one strand shown
Matrix: in vitro
Tested at: not given
Setting: 8-mer, flanks averaged, mean of 2 arrays, mostly near background
Relative to: not given
Direction: higher = stronger binding
Construct (chain): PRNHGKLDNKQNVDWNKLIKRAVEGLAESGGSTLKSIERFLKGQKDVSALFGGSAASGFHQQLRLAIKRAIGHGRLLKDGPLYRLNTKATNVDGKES
| Sequence | E-score |
| --- | --- |
| CCATTGCA | -0.00979 |
| AAGCTGCT | -0.0467 |
| AATACTCA | 0.129 |
| CTCTAGAC | -0.126 |
| GAACAAAA | 0.0503 |
| CGGGGGCC | 0.12 |

Set 2
Target: Sal-like protein 4, full length isoform B (SALL4, Homo sapiens, UniProt Q9UJQ4-2, residues 1-616)
Method: universal PBM
Form: double-stranded DNA, one strand shown
Matrix: in vitro
Tested at: not given
Setting: 8-mer, flanks averaged, mean of replicates
Direction: higher = stronger binding
Target sequence (chain): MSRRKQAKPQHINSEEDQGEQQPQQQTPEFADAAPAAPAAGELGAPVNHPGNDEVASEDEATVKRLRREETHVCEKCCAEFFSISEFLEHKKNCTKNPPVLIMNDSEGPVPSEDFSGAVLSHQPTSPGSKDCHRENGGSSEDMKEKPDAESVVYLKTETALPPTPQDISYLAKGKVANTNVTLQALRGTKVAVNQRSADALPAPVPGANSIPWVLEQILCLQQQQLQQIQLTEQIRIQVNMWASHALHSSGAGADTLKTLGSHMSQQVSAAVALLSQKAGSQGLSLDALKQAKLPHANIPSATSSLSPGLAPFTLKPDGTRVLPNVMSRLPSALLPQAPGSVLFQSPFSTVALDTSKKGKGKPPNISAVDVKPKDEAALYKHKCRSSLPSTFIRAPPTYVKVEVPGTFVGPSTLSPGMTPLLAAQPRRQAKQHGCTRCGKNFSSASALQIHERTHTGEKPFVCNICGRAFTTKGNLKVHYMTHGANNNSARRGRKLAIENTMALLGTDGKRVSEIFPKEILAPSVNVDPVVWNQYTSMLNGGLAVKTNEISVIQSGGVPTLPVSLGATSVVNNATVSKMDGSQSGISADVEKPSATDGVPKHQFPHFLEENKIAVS
| Sequence | E-score |
| --- | --- |
| ATTAGTGC | 0.162 |
| AACGTCTG | -0.149 |
| CTATTGTC | 0.0277 |
| ACGTGAGG | -0.0958 |
| TATGCCGA | 0.0389 |
| CCAGGTCC | -0.314 |

Set 3
Target: Interferon regulatory factor 3, full length, phosphomimetic (IRF3, Homo sapiens, UniProt Q14653, residues 1-427, S386D/S396D/S398D/S402D/T404D/S405D)
Method: protein-binding microarray
Form: double-stranded DNA, one strand shown
Matrix: in vitro
Tested at: 2540 nM top
Setting: 60-bp whole probe
Together with: salmon DNA 0.4 mg/ml
Relative to: random background probes
Direction: higher = stronger binding
Shared flanks, not repeated: GCCTAGCAC … GTCTTGATTCGCTTGACGCTGCTG
Target sequence (chain): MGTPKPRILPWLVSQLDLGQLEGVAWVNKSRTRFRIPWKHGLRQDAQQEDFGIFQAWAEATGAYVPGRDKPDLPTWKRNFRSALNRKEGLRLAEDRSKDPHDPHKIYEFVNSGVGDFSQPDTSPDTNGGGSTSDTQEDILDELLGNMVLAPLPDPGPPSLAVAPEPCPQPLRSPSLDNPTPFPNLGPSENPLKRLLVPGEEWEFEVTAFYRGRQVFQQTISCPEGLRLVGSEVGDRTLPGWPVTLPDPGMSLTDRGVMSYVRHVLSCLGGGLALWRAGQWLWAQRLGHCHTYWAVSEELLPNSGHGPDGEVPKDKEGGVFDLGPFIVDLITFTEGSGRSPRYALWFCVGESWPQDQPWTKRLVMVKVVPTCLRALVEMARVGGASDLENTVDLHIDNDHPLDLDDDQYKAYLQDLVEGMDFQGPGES
| Sequence | fitted relative affinity [z-score] |
| --- | --- |
| TTAGGTATCGACTATCGGTAAGTGCTA | 0.513 |
| CTGCCCTGGTTCCCCTGCCTGTGCTAG | -0.452 |
| TTAGATTTCAGTCTCGATTCGTGCTAG | 2.71 |
| GACGATTTCGGGTTTCGTGACGTGCTA | 2.53 |
| TTAGATCTCAGACTGGATTTGTGCTAG | -0.0483 |

Further values, each from its own experiment
| Substance | target | test | system | conditions | scale | quantity | value |
| --- | --- | --- | --- | --- | --- | --- | --- |
| PhoQ, residues 284 288 289 292 302 303 SACGEM | PhoP, residues 12 14 15 18 19 SPWRL (Escherichia coli, UniProt P23836) | Sort-seq, refers to: YFP reporter | E. coli | PhoQ-PhoP variant library, together with: 10 µM Mg2+ | relative to: high Mg2+ state, higher = stronger signaling | fold induction | 0.845 |

A few entries again (set 2):
| Sequence | E-score |
| --- | --- |
| CCAGGTCC | -0.314 |
